# Measured values gathered from unrelated publications.
# Numbered parts are unrelated; each lists some results of a single study. Substitutions count along the parent as printed.

# Sample 1
# Target: CCND1, cyclin fold, Cln2 fusion (human)
# Method: yeast growth competition, sequencing
# Matrix: yeast
# Notes: strong parent motif
# Baseline: not given
# Reading: higher = stronger binding
# Parent: SCAPER docking peptide (human); SNARRSLNFGGST
Substitution,normalised enrichment score
SNARRSLNIGGST [F9I],-0.0425
SNARRSLNFCGST [G10C],0.445
SNARRSLNFGYST [G11Y],0.406
SYARRSLNFGGST [N2Y],0.799
SNARRSLNFRGST [G10R],-0.0482
SNARTSLNFGGST [R5T],0.209
SNARRLLNFGGST [S6L],0.734
ANARRSLNFGGST [S1A],0.556
SNARRWLNFGGST [S6W],1.06
SNARRSLNFWGST [G10W],0.611
SNARRSLNFGGSA [T13A],0.769
SNARRSLNFGEST [G11E],1.01
SNARFSLNFGGST [R5F],0.94
SNARRSLNFFGST [G10F],0.0232
SNAFRSLNFGGST [R4F],-0.078
SNARRSLRFGGST [N8R],-0.013
SNARVSLNFGGST [R5V],0.717

# Sample 2
# Target: Sal-like protein 4, full length isoform B (SALL4, Homo sapiens, UniProt Q9UJQ4-2, residues 1-616)
# Method: universal PBM
# Form: double-stranded DNA, one strand shown
# Matrix: in vitro
# Tested at: not given
# Notes: 8-mer, flanks averaged, mean of replicates
# Reading: higher = stronger binding
Sequence,E-score
CTATCCTC,0.00353
CTGCCCTA,-0.0191
GTGCATGA,0.0522
AGGTGGAC,-0.234
ACACTTAC,0.243
AAGGGAGG,-0.188
AGCAGGGC,-0.294
CCACAGTA,0.0525
AGGCCGAG,-0.228
ATCAACGG,0.0403
GGGTTTTA,-0.00559
GTGTGACA,-0.0485
CATAGGGA,0.0457
AATTAATG,0.323
AGGTGAGG,-0.0908
TCGCGGCA,-0.25
AGCAGACG,-0.302
CCTGGATC,-0.227
ACTCAGAA,0.134
ATTTCCCA,0.166

# Sample 3
# Target: Histone acetyltransferase KAT6A, both winged helices, GST fusion (KAT6A, Homo sapiens, UniProt Q92794, residues 1-181)
# Method: protein binding microarray
# Form: double-stranded DNA, one strand shown
# Matrix: in vitro
# Tested at: not given
# Notes: 8-mer, flanks averaged, mean of 2 arrays, mostly near background
# Baseline: not given
# Reading: higher = stronger binding
# Construct (chain): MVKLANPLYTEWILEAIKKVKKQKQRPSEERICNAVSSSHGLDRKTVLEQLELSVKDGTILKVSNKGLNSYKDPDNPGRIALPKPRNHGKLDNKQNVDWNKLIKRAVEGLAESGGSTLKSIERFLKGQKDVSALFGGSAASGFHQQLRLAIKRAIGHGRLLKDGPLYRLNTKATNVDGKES
Sequence,E-score
AGCATTCC,0.0681
ACAGCCGC,0.207
CAGTGGGC,-0.157
ACCTGAAA,0.0017
GCTCTAAA,-0.0268
GGTCTCAA,-0.00893
CGTCCCTA,0.00183
ACACAGAC,-0.116
GTTTAGAA,0.0222
ACTGAAAT,-0.0771
AGGCCCCT,-0.192
CCCCAGAG,-0.214
GCCACCGC,0.245
AAAGACTC,-0.0363
GTCCCAGA,-0.0704
AGTGGGAT,-0.159
CCGACACG,0.14
ACCATATG,-0.137
CGTGATTC,0.1
CGAACAAG,0.0985
ATGCAAGG,-0.151
CAAGTTAC,0.0359
ATAAAGAT,-0.0781
ACACCTTA,-0.0502
AGGGATAT,-0.23

# Sample 4
# Target: Interferon regulatory factor 5, full length, phosphomimetic (IRF5, Homo sapiens, UniProt Q13568-2, residues 1-514, S451D/S453D/S456D/S462D)
# Method: protein-binding microarray
# Form: double-stranded DNA, one strand shown
# Matrix: in vitro
# Tested at: 940 nM top
# Notes: 60-bp whole probe
# With: salmon DNA 0.4 mg/ml
# Baseline: random background probes
# Reading: higher = stronger binding
# Shared flanks, not repeated: GCCTAGCAC … GTCTTGATTCGCTTGACGCTGCTG
Sequence,fitted relative affinity [z-score]
TTAGAACTGGTGTTTCGATTAGTGCTA,1.81
GACGAACTGGGGACTGGAGATGTGCTA,-0.0977
TTAGGTATCCTTTTTCTTTAGTGCTAG,1.05
TACTAGAGTAAAACCCTGGCGTGCTAG,-0.524
GACGGACTGCATTTCCTGACGTGCTAG,-0.733
GACGGTTTCCTTTCCCTGAGGTGCTAG,1.32
TTAGATTTCGCGACTGGATTAGTGCTA,0.0534
GACGGTATCGAAACTGGGGACGTGCTA,6.49
TTAGGACTGGCTCTCGGTTAGTGCTAG,1.43
TTAGATTTCAGTCTCGTTTAGTGCTAG,3.06
GCTTTTTTTTTTTTTTTTTTGTGCTAG,0.772
GACGATACCGGGTATCGAGACGTGCTA,2.19
TTAGGTTTCGGTTTCGCTTAGTGCTAG,15.8
CGCGCTTCTCGGCGGCGAAGGTGCTAG,-0.0334
TTAGGGTTCCTTATCCTTTAGTGCTAG,-0.304
GACGGTCTCCTTATCCTGCCGTGCTAG,0.507
GACGAACTGGGGACTAGAGACGTGCTA,0.137
AACGGTCTCCTTATCCTGACGTGCTAG,0.432
TAGACCTAGAAAGAAACCACGTGCTAG,0.225
TTAGAACTGAGTCTCGATTAGTGCTAG,2.78
TTAGGTTTCCTTTCCCATTAGTGCTAG,2.16
GTGGCAGGCCCTCGGGCTCCGTGCTAG,-1.28
TGAGATATCGGGTTTCGATTAGTGCTA,4.89
CGTACTGTATCTAGCCTTGCGTGCTAG,-0.215
TTCGATTTCAGACTGGATTAGTGCTAG,0.165

# Sample 5
# Target: Prothrombin, mature alpha-thrombin (F2, Homo sapiens, UniProt P00734)
# Method: aptamer microarray, sandwich
# Form: DNA with 2'F-ANA
# Matrix: in vitro
# Tested at: 200 nM
# Notes: whole 15-mer aptamer, many near background
# With: Cy3 exosite-II aptamer, 400 nM
# Reading: higher = stronger binding
# Sequence: GGTTGGTGTGGTTGG
Modification,mean fluorescence intensity [a.u.]
2'F-ANA at 1 4 6 8 9 10 11 12 13 15,51.6
2'F-ANA at 1 3 4 6 9 13,114
2'F-ANA at 1 2 3 5 6 7 8 10 11 13 15,54.7
2'F-ANA at 1 4 5 9 11 15,51.4
2'F-ANA at 1 2 3 6 7 8 10 11 12 15,399
2'F-ANA at 3 4 5 9 14 15,63.3
2'F-ANA at 4 5 7 8 9 11 13,51.4
2'F-ANA at 1 2 4 7 8 9 12 14 15,68.5
2'F-ANA at 1 2 4 6 7 8 15,164
2'F-ANA at 2 3 6 7 11 12,868
2'F-ANA at 3 4 5 9 10 11 14 15,49.3
2'F-ANA at 1 3 4 11 12 13,279
2'F-ANA at 1 2 3 9 14 15,76.4
2'F-ANA at 1 2 5 7 10,44.1
2'F-ANA at 2 4 6 12 13 15,320
2'F-ANA at 1 4 6 7 8 11 13 14 15,59.3
2'F-ANA at 3 4 9 14,328
2'F-ANA at 2 6 9 11 15,292
2'F-ANA at 1 2 4 5 6 8 12 14,51
2'F-ANA at 1 5 6 12 15,105
2'F-ANA at 2 4 6 7 9 11 12,391
2'F-ANA at 2 5 6 7 8 9 11,71.7

# Further values, each from its own experiment
Molecule,target,assay,system,conditions,scale,quantity,result
"PhoQ, residues 284 288 289 292 302 303 MLMVEA","PhoP, residues 12 14 15 18 19 TQAIL (Escherichia coli, UniProt P23836)","Sort-seq, measured: YFP reporter",E. coli,"PhoQ-PhoP variant library, with: 10 µM Mg2+","baseline: high Mg2+ state, higher = stronger signaling",fold induction,7.4

# Excerpt of the above (sample 5):
Modification,mean fluorescence intensity [a.u.]
2'F-ANA at 1 2 3 6 7 8 10 11 12 15,399
2'F-ANA at 3 4 5 9 14 15,63.3
2'F-ANA at 4 5 7 8 9 11 13,51.4
2'F-ANA at 1 2 4 7 8 9 12 14 15,68.5
2'F-ANA at 1 2 4 6 7 8 15,164
2'F-ANA at 2 3 6 7 11 12,868
2'F-ANA at 3 4 5 9 10 11 14 15,49.3
2'F-ANA at 1 3 4 11 12 13,279
2'F-ANA at 1 2 3 9 14 15,76.4
2'F-ANA at 1 2 5 7 10,44.1
2'F-ANA at 2 4 6 12 13 15,320
